# Results of several laboratories.
# ± gives the spread as reported.
# FAAH: Fatty-acid amide hydrolase 1 (FAAH, Homo sapiens, UniProt O00519)
# Sequence of UniProt O00519 (whole entry, looked up): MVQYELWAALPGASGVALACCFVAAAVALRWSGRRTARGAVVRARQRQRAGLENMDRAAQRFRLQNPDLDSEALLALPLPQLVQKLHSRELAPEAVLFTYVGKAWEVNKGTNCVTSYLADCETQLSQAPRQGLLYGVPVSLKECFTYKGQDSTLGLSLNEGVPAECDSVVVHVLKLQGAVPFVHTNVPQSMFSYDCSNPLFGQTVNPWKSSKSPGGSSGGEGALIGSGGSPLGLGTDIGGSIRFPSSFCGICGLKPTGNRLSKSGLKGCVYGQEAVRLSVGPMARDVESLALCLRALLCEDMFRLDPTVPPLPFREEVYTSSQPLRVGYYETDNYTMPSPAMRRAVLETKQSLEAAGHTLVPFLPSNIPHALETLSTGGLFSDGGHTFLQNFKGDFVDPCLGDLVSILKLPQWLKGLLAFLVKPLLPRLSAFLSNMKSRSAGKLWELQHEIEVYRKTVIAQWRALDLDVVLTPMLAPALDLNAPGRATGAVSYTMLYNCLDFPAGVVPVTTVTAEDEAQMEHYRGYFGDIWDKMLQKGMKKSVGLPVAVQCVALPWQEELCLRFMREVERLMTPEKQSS
# PARP1: Poly [ADP-ribose] polymerase 1 (PARP1, Homo sapiens, UniProt P09874)
# Sequence of UniProt P09874 (whole entry, looked up): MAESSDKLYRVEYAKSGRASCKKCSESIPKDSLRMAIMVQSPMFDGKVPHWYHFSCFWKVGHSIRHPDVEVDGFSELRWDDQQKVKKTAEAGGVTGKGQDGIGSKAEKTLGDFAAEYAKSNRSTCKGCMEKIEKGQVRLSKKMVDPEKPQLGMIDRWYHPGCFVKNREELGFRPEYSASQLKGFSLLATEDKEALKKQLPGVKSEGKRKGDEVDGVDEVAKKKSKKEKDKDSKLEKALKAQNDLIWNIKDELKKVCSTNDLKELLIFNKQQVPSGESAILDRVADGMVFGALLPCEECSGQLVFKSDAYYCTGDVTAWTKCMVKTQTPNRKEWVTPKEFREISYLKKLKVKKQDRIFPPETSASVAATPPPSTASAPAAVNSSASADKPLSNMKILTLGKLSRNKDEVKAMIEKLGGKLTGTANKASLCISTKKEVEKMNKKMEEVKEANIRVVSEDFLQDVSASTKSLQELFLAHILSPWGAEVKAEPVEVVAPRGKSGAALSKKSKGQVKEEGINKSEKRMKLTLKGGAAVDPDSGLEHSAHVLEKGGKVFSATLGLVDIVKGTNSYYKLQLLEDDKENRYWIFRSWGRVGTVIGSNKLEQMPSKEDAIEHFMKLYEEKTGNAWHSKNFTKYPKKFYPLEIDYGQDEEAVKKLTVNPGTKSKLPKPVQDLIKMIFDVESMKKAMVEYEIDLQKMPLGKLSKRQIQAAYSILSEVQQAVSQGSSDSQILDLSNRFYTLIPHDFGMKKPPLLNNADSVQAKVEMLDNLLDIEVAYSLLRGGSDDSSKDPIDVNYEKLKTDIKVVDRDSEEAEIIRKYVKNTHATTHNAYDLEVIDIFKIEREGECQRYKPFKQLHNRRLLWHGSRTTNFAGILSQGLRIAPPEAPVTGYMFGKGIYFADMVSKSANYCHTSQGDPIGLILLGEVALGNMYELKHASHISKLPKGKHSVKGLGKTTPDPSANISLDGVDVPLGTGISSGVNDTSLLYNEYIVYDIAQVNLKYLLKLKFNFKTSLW
# Sequence of UniProt Q86XQ3 (whole entry, looked up): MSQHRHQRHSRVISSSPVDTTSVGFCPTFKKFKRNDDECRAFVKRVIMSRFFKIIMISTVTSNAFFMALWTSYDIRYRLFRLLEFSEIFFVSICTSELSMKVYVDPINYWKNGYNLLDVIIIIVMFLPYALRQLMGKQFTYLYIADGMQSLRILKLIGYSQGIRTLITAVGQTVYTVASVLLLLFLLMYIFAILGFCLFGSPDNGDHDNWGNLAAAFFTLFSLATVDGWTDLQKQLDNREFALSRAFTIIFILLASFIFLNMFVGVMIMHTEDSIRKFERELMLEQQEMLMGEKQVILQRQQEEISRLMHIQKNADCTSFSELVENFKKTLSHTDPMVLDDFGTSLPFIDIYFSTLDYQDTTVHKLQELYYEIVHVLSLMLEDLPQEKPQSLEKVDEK
# Sequence of UniProt P27694 (whole entry, looked up): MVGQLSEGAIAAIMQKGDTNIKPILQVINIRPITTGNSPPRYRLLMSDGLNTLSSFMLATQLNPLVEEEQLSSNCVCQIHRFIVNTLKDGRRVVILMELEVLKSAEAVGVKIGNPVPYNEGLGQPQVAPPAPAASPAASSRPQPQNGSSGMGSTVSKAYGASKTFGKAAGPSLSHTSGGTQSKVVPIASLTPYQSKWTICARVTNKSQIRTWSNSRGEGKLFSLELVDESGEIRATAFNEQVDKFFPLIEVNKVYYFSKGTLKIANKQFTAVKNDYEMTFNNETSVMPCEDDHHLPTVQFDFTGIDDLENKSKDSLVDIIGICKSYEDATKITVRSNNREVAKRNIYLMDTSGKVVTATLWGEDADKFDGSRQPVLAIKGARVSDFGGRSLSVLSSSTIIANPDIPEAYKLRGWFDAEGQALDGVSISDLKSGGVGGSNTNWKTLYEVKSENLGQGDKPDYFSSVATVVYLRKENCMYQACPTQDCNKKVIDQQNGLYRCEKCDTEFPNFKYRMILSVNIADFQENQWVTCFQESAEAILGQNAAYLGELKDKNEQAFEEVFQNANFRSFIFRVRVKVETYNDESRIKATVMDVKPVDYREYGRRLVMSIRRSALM
# Sequence of UniProt Q86YT5 (whole entry, looked up): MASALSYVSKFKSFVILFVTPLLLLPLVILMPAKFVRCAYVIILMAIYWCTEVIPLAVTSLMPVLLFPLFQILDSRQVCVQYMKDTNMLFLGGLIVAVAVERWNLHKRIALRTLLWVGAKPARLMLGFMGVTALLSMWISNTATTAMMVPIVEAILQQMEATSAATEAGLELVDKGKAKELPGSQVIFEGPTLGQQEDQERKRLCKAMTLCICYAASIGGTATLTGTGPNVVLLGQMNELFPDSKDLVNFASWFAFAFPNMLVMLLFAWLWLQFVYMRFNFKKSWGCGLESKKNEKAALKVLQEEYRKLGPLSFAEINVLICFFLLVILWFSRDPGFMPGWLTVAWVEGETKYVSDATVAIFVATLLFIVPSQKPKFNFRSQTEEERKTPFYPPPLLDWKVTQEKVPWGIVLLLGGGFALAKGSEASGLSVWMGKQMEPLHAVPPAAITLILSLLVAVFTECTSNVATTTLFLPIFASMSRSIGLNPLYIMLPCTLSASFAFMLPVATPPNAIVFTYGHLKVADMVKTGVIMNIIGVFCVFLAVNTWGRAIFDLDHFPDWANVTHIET
# Sequence of UniProt Q9NTG7 (whole entry, looked up): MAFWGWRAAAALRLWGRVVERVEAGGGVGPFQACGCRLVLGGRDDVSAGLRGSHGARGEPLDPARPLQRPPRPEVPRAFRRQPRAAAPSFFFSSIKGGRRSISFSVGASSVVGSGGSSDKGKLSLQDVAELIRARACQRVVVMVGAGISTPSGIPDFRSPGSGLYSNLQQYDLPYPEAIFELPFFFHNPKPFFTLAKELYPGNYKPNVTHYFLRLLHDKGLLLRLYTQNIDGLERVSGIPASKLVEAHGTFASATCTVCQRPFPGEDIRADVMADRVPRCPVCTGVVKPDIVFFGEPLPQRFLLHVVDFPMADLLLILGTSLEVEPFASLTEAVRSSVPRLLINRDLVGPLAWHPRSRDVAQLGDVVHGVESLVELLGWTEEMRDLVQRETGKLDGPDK
# Sequence of UniProt P28074 (whole entry, looked up): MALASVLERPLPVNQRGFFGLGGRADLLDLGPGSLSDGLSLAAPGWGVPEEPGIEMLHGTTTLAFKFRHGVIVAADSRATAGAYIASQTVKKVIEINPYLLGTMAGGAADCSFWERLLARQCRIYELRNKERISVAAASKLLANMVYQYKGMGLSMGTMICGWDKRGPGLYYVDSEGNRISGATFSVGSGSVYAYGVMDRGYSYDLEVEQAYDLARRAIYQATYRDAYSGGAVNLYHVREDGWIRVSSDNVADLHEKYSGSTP
# Sequence of UniProt P27487 (whole entry, looked up): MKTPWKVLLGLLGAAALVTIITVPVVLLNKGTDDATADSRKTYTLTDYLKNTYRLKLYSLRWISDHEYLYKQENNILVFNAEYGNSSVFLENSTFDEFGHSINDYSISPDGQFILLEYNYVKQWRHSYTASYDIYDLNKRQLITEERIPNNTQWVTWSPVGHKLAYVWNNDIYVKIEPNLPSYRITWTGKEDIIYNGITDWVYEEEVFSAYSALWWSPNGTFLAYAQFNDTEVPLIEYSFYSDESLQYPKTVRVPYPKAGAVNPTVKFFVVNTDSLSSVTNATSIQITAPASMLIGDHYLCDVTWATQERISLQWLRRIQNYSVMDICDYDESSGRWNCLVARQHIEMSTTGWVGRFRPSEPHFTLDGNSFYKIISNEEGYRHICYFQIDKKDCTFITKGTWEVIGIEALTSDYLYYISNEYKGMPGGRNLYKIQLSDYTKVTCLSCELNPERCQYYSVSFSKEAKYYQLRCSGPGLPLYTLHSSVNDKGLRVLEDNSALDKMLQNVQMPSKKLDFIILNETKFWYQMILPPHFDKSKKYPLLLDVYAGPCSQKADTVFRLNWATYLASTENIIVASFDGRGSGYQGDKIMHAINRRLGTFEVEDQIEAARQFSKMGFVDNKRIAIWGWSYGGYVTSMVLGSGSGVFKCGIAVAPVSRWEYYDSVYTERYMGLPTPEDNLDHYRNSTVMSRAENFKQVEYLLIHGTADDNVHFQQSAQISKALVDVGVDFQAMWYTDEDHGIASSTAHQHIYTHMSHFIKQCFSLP
# Sequence of UniProt P07195 (whole entry, looked up): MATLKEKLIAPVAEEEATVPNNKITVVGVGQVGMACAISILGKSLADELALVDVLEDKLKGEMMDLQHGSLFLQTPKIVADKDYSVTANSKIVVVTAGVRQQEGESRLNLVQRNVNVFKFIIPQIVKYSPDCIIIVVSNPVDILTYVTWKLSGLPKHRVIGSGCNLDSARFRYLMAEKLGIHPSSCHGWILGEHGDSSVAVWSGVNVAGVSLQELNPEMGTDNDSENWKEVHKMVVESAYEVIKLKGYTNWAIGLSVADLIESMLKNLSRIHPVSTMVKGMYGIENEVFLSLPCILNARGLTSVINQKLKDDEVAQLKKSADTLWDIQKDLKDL
Structure (SMILES),target,assay,test system,setting,IC50
COc1ccc(C2=NN(C(=O)CCC(=O)O)C(c3cn(-c4ccccc4)nc3-c3ccc(C)cc3)C2)cc1 (stereo not shown),"RPA1 (Homo sapiens, UniProt P27694)","protein-nucleic acid interaction, inhibitor, mobility shift",,,71.7 µM
Cc1nc2ccc(NC(=O)CCNC(=O)CCCc3ccc(CC(C(=O)O)C(=O)O)cc3)cc2s1,"LDHB (Homo sapiens, UniProt P07195)","inhibitor, NADH fluorescence",,"pyruvate competition, added: 150 µM NADH, 200 µM pyruvate",5 ± 0.8 µM
O=C(NCc1ccc(F)cc1)C1CCN(S(=O)(=O)c2cc(Cl)cc(Cl)c2)CC1,"Na(+)/citrate cotransporter (Homo sapiens, UniProt Q86YT5)","citrate uptake, inhibitor",HepG2,"30 min preincubation, washout before uptake",0.197 ± 0.051 µM
O=C(OCc1ccccc1)c1ccccc1,FAAH,"enzyme activity, inhibitor, fluorescence",,with preincubation,> 100 µM
O=C(O)C(CCCO)[C@@H]1CCN[C@H]1C(=O)O (relative stereo),"AMPA receptor, rat",binding,cortical synaptosomes,added: [3H]-AMPA,> 100 µM
"CCc1ccc(OC)cc1-n1c(C=C(C)C)c(C(=O)N2CCNCC2)cc(-c2nc(-c3ccc(Cl)cc3)cs2)c1=O (single isomer, unassigned)","IDH1 (Homo sapiens, UniProt O75874, R132C)","enzyme activity, inhibitor",,,0.67 µM
CC(=O)NNS(=O)(=O)c1ccc2c(c1)n(C)c(=O)c(=O)n2C,"DPP4 (Homo sapiens, UniProt P27487)","enzyme activity, inhibitor, fluorescence",,,8.5e-05 µM
Cc1ccc(NC2=CC(=O)c3sc(C)nc3C2=O)cc1,"PSMB5 (Homo sapiens, UniProt P28074)",enzyme activity,,"added: Suc-LLVY-AMC substrate, ATP",> 30 µM
CC(C)CCn1c(CN2CCN(C(=O)c3ccco3)CC2)nc2c1c(=O)n(C)c(=O)n2C,"ALDH1A2 (Homo sapiens, UniProt O94788)","enzyme activity, inhibitor",,added: propionaldehyde,> 100 µM
NC(=O)c1cc(N)cc2c1OCCO2,PARP1,,,,> 5 µM
O=C(NC1CCCCC1)OCc1cn(Cc2cc(F)cc(F)c2)nn1,FAAH,"enzyme activity, inhibitor, fluorescence",,cell membranes,0.216 µM
COc1cc(/C=C/C(=O)O)ccc1O,"Cell division cycle 7-related protein kinase, with DBF4 (CDC7, Homo sapiens, UniProt O00311)","enzyme activity, inhibitor, ADP-Glo luminescence",,added: ATP 12.5 µM,13.2 ± 3.9 µM
COCC(=O)O[C@]1(CCN(C)CCCc2nc3ccccc3[nH]2)CCc2cc(F)ccc2[C@@H]1C(C)C,"CatSper channel complex (Homo sapiens, UniProt Q7RTX7+Q86XQ3+Q8NEC5+Q96P56)","calcium influx, inhibitor",human sperm,added: progesterone 30 nM,6.76 µM
COc1ccccc1NC(=O)CSc1nnc(-c2cc3cccc(OC)c3o2)n1-c1ccccc1,fungal tyrosinase,"enzyme activity, inhibitor, dopachrome absorbance",,"pH 6.8, 37 °C, added: L-tyrosine substrate",0.39 ± 1.45 µM
N#Cc1c(-c2ccc([N+](=O)[O-])cc2)cc(-c2ccc(NC(=O)CSc3nc4ccccc4c(=O)n3-c3ccccc3)cc2)nc1N,PARP1,"enzyme activity, inhibitor, absorbance",,,0.402 µM
CC(NC(=O)c1ccccc1/N=C/c1c(O)ccc2ccccc12)c1ccccc1 (stereo not shown),"SIRT3 (Homo sapiens, UniProt Q9NTG7)",,,,150 µM
C[C@@H]1CC[C@]2(C(=O)O)CC[C@]3(C)C(=CC[C@@H]4[C@@]5(C)[C@H](O)C(=O)[C@H](O)C(C)(C)[C@@H]5CC[C@]43C)[C@@H]2[C@]1(C)O,"AMY2 (Sus scrofa, UniProt P00690)","enzyme activity, inhibitor, absorbance",,,130 µM
[Mg+2],"Glutamate NMDA receptor; Grin1/Grin2a (Grin1/Grin2a, Rattus norvegicus, UniProt P35439+Q00959)",antagonist,,,26 µM
CO[C@@]1(NC(=O)Cc2cccs2)C(=O)N2C(C(=O)O)=C(COC(N)=O)CS[C@@H]21,"mecA (Staphylococcus aureus, UniProt A0A0H2WXF8)",,,,573 ± 63.2 µM
